Experimental data pooled from the literature.
Parts stem from different laboratories: compare values within a part only. Several values in a cell are separate wells, animals, samples, runs or records. ± marks the error that the study gave.
UniProt P33981, sequence (whole entry, looked up): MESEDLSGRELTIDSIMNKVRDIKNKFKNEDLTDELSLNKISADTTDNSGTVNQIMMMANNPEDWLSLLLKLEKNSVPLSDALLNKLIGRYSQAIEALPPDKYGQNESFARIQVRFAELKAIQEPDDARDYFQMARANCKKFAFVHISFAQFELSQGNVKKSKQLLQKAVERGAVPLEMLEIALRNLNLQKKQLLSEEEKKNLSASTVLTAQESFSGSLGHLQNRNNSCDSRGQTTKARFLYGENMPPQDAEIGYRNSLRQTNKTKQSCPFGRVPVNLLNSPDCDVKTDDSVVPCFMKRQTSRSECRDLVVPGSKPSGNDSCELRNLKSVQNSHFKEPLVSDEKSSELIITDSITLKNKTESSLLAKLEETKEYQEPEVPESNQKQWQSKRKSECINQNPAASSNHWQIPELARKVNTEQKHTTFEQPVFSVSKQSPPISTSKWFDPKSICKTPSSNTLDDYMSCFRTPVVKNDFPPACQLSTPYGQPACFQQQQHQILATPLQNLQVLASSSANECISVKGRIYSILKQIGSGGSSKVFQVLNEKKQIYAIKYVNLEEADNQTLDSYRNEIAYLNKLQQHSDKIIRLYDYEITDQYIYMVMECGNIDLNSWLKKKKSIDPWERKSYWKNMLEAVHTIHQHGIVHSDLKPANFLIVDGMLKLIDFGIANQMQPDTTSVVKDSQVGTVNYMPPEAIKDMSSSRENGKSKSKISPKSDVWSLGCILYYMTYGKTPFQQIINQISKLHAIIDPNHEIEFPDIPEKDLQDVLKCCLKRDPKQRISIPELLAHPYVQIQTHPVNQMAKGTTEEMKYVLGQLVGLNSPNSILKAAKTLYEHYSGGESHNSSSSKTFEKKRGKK
UniProt Q9UM73, sequence (whole entry, looked up): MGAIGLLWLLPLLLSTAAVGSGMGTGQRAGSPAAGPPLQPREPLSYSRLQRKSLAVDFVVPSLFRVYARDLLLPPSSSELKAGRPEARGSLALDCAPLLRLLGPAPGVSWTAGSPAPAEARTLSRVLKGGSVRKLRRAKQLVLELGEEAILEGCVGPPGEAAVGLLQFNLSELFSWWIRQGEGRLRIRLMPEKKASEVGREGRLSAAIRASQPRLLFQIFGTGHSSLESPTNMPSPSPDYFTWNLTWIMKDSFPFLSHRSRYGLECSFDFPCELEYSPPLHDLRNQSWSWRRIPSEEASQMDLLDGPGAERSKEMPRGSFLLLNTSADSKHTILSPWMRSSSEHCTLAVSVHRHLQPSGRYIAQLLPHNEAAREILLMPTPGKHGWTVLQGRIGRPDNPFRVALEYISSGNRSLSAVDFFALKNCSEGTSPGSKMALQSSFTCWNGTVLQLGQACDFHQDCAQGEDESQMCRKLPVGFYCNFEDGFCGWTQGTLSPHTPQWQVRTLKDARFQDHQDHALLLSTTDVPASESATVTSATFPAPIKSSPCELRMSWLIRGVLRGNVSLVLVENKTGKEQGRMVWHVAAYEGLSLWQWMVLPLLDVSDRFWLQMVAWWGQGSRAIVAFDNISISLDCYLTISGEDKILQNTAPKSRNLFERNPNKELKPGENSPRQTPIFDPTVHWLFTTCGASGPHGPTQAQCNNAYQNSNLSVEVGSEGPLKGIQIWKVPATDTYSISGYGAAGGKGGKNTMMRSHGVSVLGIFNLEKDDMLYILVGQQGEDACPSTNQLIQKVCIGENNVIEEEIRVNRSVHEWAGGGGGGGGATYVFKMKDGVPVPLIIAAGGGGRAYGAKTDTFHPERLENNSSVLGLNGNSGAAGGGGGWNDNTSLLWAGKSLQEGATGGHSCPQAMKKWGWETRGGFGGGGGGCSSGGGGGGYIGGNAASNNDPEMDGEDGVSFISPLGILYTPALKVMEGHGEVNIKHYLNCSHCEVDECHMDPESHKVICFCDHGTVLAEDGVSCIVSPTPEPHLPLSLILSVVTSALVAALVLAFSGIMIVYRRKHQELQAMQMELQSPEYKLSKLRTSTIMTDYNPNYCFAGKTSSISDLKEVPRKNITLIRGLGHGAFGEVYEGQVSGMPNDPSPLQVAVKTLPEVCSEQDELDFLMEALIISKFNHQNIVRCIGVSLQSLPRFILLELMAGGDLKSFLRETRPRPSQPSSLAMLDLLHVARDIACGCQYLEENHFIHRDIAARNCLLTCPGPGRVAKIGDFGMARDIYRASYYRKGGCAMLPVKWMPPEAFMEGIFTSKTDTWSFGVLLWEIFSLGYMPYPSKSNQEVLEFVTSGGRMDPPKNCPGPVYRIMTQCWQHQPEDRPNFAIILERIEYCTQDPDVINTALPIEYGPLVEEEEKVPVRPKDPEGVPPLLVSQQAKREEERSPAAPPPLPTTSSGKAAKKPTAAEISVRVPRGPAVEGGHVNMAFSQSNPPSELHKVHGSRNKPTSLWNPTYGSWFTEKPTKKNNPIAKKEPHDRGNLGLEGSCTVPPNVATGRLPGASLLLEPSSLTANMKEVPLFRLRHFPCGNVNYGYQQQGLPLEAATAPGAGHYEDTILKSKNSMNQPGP
UniProt Q9HBH9, sequence (whole entry, looked up): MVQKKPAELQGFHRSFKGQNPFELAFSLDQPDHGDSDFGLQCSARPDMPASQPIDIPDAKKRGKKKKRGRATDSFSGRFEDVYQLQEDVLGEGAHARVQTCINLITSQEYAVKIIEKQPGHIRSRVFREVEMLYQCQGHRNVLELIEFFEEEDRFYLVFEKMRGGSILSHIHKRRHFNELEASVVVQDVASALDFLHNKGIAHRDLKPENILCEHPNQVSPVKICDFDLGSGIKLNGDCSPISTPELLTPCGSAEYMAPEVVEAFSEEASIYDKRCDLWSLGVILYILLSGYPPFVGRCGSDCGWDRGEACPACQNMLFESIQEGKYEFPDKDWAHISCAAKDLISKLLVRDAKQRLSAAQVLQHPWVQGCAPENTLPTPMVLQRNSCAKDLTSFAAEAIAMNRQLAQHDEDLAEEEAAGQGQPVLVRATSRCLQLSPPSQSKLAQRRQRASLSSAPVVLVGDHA
UniProt P05177, sequence (whole entry, looked up): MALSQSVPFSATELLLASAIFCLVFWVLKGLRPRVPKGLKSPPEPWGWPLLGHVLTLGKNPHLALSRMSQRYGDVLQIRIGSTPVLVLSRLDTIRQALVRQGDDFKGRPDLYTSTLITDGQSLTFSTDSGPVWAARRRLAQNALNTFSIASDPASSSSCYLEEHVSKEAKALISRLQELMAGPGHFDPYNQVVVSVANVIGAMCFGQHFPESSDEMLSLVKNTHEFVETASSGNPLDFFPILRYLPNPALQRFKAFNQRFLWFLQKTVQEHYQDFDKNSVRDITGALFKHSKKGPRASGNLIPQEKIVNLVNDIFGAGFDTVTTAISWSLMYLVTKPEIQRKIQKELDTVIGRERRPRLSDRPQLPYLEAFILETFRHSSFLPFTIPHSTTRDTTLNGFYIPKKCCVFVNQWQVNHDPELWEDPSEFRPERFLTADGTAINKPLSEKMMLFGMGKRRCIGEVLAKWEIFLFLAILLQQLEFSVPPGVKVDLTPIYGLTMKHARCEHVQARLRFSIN
UniProt O14965, sequence (whole entry, looked up): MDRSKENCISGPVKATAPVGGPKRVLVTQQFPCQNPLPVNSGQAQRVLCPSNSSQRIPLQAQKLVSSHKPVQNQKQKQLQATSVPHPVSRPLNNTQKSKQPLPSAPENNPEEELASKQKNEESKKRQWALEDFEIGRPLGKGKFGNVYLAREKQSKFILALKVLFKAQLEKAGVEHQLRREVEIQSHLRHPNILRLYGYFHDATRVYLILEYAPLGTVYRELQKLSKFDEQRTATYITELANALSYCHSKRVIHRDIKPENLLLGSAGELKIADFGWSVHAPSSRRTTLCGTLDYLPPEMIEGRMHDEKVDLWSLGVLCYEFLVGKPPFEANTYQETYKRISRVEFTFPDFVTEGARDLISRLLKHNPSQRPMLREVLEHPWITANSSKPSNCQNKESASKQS
UniProt Q8WU08, sequence (whole entry, looked up): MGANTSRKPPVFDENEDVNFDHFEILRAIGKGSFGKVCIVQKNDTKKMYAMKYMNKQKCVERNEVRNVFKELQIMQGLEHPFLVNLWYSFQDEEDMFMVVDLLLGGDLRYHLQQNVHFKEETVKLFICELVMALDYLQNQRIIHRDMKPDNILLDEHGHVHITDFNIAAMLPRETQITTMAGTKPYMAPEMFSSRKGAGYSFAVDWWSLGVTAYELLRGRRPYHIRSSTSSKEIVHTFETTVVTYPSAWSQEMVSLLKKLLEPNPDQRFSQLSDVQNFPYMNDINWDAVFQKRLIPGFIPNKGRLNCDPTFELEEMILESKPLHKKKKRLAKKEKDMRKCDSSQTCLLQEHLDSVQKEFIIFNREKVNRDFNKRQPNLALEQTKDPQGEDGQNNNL

Block 1 — time: 6 days
SMILES: Cc1ncsc1-c1ccc(C(CO)NC(=O)C2CC(O)CN2C(=O)C(C(C)C)n2cc(-c3ccc(COc4c(-c5c(C)c(F)cc6[nH]ncc56)c(C5CC5)cc5c(N6CC7CC6CN7)nc(OC6CCOCC6)nc45)cc3)nn2)cc1 (centres unmarked)
| cell line | assay | conditions | how to read | viability |
| --- | --- | --- | --- | --- |
| SW-403 | cell growth or viability, ATP luminescence | 10 nM |  | 88.9% and 83.8% and 93% and 88.5% |
| SW-403 | cell growth or viability, ATP luminescence | 3 µM |  | 8.68% and 7.85% and 9.28% and 10.3% |
| NCI-H358 | cell growth or viability, ATP luminescence | 0.1 µM |  | 85.1% and 64.6% and 50.8% and 67.3% |
| AsPC-1 | CellTiter-Glo | 30 nM | relative to: DMSO | 36.2% and 31.3% and 39.2% |
| NCI-H358 | cell growth or viability, ATP luminescence | 300 pM |  | 105% and 99.9% and 98.5% and 83.7% |
| T24 | cell growth or viability, ATP luminescence | 10 nM |  | 101% and 99.6% and 92.5% and 98.8% |
| ASPC1 | cell growth or viability, ATP luminescence | 3 µM |  | 5.26% and 7.41% and 7.42% and 6.14% |
| PaTu 8902 | cell growth or viability, ATP luminescence | 3 nM |  | 108% and 85.9% and 103% and 105% |
| HCT-116 | cell growth or viability, ATP luminescence | 10 nM |  | 92.6% and 93.5% and 90% and 86.8% |
| ASPC1 | cell growth or viability, ATP luminescence | 0.1 µM |  | 20.2% and 25.1% and 26.1% and 36.3% |

Block 2 — effect on: enzyme activity
SMILES: CN(C1COC1)C(C)(C)/C=C(\C#N)C(=O)N1CCC[C@H]1Cn1nc(-c2ccc(Oc3ccccc3)cc2F)c2c(N)ncnc21
| target | assay | conditions | IC50 [µM] |
| --- | --- | --- | --- |
| EGFR (Homo sapiens, UniProt P00533) | inhibitor |  | 3.2 |
| MAP2K7 (Homo sapiens, UniProt O14733) | inhibitor |  | > 5 |
| BTK (Homo sapiens, UniProt Q06187) |  | preincubation 90 min | 0.0015 ± 0.0002 |
| ERBB4 (Homo sapiens, UniProt Q15303) | inhibitor |  | 0.065 |
| BMX (Homo sapiens, UniProt P51813) | inhibitor |  | 0.0076 |

Block 3 — mode: inhibitor
Compound: CC[C@@]1(c2cccc(C(F)(F)F)c2)C2=C(Nc3n[nH]cc31)[C@H](F)C(C)(C)CC2=O (single isomer, unassigned)
| target | assay | IC50 [µM] |
| --- | --- | --- |
| Cytochrome P450 1A2 (CYP1A2, Homo sapiens, UniProt P05177) | enzyme activity | > 10 |
| CYP2C19 (Homo sapiens, UniProt P33261) | enzyme activity | > 10 |
| Cytochrome P450 2D6 (CYP2D6, Homo sapiens, UniProt P10635) | enzyme activity | > 10 |
| KCNH2 (Homo sapiens, UniProt Q12809) | ion current | > 30 |
| Cytochrome P450 2C8 (CYP2C8, Homo sapiens, UniProt P10632) | enzyme activity | > 10 |
| Cytochrome P450 2C9 (CYP2C9, Homo sapiens, UniProt P11712) | enzyme activity | 9.75 |

Block 4 — effect on: binding; method: competition with immobilised ligand; concentration: 1 µM
SMILES: COc1cc(-c2nc3ccc(C(=O)NCCCN(C)C)cc3n2C2CCC2)cc(OC)c1OC
| target | remaining binding |
| --- | --- |
| EGFR (Homo sapiens, UniProt P00533, del747-752/P753S) | 88% |
| MERTK (Homo sapiens, UniProt Q12866) | 86% |
| STK32A (Homo sapiens, UniProt Q8WU08) | 89% |
| CSNK1G1 (Homo sapiens, UniProt Q9HCP0) | 97% |
| IRAK3 (Homo sapiens, UniProt Q9Y616) | 98% |
| PIK3CA (Homo sapiens, UniProt P42336, H1047Y) | 68% |
| Aurora kinase A (AURKA, Homo sapiens, UniProt O14965) | 60% |
| Non-receptor tyrosine-protein kinase TYK2, JH1 (TYK2, Homo sapiens, UniProt P29597) | 95% |
| EPHA5 (Homo sapiens, UniProt P54756) | 100% |
| EPHA2 (Homo sapiens, UniProt P29317) | 86% |
| MYLK4 (Homo sapiens, UniProt Q86YV6) | 96% |
| STK35 (Homo sapiens, UniProt Q8TDR2) | 88% |
| Tyrosine-protein kinase ABL1, phosphorylated (ABL1, Homo sapiens, UniProt P00519, E255K) | 61% |
| FGFR3 (Homo sapiens, UniProt P22607, G697C) | 90% |
| EIF2AK1 (Homo sapiens, UniProt Q9BQI3) | 71% |
| EPHA4 (Homo sapiens, UniProt P54764) | 100% |
| EPHB6 (Homo sapiens, UniProt O15197) | 100% |
| CDK7 (Homo sapiens, UniProt P50613) | 84% |
| MKNK2 (Homo sapiens, UniProt Q9HBH9) | 67% |
| MAPKAPK2 (Homo sapiens, UniProt P49137) | 100% |
| TTK (Homo sapiens, UniProt P33981) | 100% |
| ALK (Homo sapiens, UniProt Q9UM73) | 98% |
| FES (Homo sapiens, UniProt P07332) | 100% |
| MAPKAPK5 (Homo sapiens, UniProt Q8IW41) | 84% |
| PAK3 (Homo sapiens, UniProt O75914) | 37% |

Other studies, line by line
Target: Sodium-dependent neutral amino acid transporter B(0)AT1 (SLC6A19, Homo sapiens, UniProt Q695T7)
UniProt Q695T7, sequence (whole entry, looked up): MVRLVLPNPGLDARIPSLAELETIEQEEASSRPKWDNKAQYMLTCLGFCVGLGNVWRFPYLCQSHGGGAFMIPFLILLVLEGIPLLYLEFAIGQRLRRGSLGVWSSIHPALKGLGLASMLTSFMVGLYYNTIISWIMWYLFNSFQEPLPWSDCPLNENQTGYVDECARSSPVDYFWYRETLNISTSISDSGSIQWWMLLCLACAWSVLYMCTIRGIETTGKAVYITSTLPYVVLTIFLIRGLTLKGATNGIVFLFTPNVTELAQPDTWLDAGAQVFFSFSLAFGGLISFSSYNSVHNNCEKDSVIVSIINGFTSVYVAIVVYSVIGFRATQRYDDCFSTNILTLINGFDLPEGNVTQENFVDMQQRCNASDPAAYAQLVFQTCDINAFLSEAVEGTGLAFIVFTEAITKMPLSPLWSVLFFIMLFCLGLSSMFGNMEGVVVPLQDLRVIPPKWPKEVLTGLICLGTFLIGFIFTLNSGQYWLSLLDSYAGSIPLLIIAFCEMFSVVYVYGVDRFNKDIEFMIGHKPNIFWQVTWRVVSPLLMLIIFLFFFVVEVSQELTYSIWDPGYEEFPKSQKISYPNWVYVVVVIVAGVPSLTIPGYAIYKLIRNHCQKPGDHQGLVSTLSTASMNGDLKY
| SMILES | assay | system | conditions | how to read | measurement | result |
| --- | --- | --- | --- | --- | --- | --- |
| CCNC(=O)COc1cc(C)c(Cl)c(C)c1 | inhibitor, L-[14C]leucine uptake | CHO-BC cells | second repeat |  | IC50 | 0.48 µM |
| Cc1cc(OCC(=O)NC(C)C)cc(C)c1Cl | FLIPR membrane potential | CHO-BC | concentration not given | relative to: 100 µM cinromide set to 0 | remaining activity | 37.9% |
| Cc1cc(NCC(=O)NC(C)C)cc(C)c1Cl | inhibitor, FLIPR membrane potential | CHO-BC cells | 30 µM |  | normalised transport activity | 0.102 |
| Cc1cc(OCC(=O)NC(C)C)cc(C)c1I | inhibitor, FLIPR membrane potential | CHO-BC cells | 30 µM |  | normalised transport activity | 0.169 |

A few entries again (block 4):
| target | remaining binding |
| --- | --- |
| CDK7 (Homo sapiens, UniProt P50613) | 84% |
| EPHA2 (Homo sapiens, UniProt P29317) | 86% |
| EPHA5 (Homo sapiens, UniProt P54756) | 100% |
